Results collected from several papers.
Numbered parts are unrelated; each lists some results of a single study.

Block 1 — technique: aptamer microarray, sandwich; form: DNA with 2'F-ANA; medium: in vitro; tested at: 200 nM; added: Cy3 exosite-II aptamer, 400 nM; direction: higher = stronger binding; endpoint: mean fluorescence intensity; strand: GGTTGGTGTGGTTGG
Target: Prothrombin, mature alpha-thrombin (F2, Homo sapiens, UniProt P00734)
Setting: whole 15-mer aptamer, many near background
2'F-ANA at 2 3 5 7 8 9 11 12 13 14 15: 62.6 a.u.
2'F-ANA at 2 5 7 8 10 11: 45.9 a.u.
2'F-ANA at 1 2 9 11 12 15: 265 a.u.
2'F-ANA at 3 5 7 8 9 10 13 15: 59.5 a.u.
2'F-ANA at 2 4 5 6 7 10 14: 50.9 a.u.
2'F-ANA at 1 2 4 5 8 10 11 12 13 14 15: 49 a.u.
2'F-ANA at 1 2 4 5 6 8 10: 55.6 a.u.
2'F-ANA at 2 7 9 12 13 15: 565 a.u.
2'F-ANA at 2 6 8 11 15: 284 a.u.
2'F-ANA at 5 9 13 14 15: 118 a.u.
2'F-ANA at 1 3 5 8 10 14: 49.4 a.u.
2'F-ANA at 1 3 6 8 10 11 15: 69.8 a.u.
2'F-ANA at 2 4 6 13 14 15: 78.5 a.u.
2'F-ANA at 2 3 4 5 8 10 13 14 15: 45.8 a.u.
2'F-ANA at 2 3 4 6 7 8 11 14 15: 259 a.u.
2'F-ANA at 2 5 11 13 14: 51.3 a.u.
2'F-ANA at 2 3 5 6 7 9 11 14: 50.5 a.u.
2'F-ANA at 6 10 11 14 15: 91.5 a.u.
2'F-ANA at 1 3 6 7 10 13 14 15: 60.1 a.u.
2'F-ANA at 1 2 3 4 6 7 13 15: 101 a.u.
2'F-ANA at 2 3 4 5 7 8 9 10 12 14: 48.9 a.u.
2'F-ANA at 5 8: 105 a.u.
2'F-ANA at 3 4 7 8 9 10 14: 264 a.u.
2'F-ANA at 2 4 5 6 7 10 12 14 15: 51 a.u.
2'F-ANA at 2 7 9 12 14: 207 a.u.

Block 2 — technique: RNA Bind-n-Seq; form: RNA; medium: in vitro; tested at: 365 nM; relative to: no-protein control; direction: higher = stronger binding; endpoint: RBNS enrichment (R)
Target: RNA binding protein fox-1 homolog 2, RRM domain, GST-SBP tag (RBFOX2, Homo sapiens, UniProt O43251-10, residues 100-194)
Setting: natural RNA segment, single round, ends assumed
All sequences stand within: GGGAGUUCUACAGUCCGACGAUC … UGGAAUUCUCGGGUGCCAA
Construct (chain): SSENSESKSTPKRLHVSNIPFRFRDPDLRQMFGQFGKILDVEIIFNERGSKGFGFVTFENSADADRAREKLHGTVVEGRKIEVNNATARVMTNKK
UUCCAGCUGUUCCUGCCCGAGCGGUCCCAGGGUGUGCUGGGAACUGAUUCCCCUCCUUUGACUUCUGCCUAGAAGCUUGGGUGCAAAGGGUUUCUUGCAUCUGAUCUUUC: 0.459
GAAUCGAGGCUCCUUUGACCAUCAAAAUGAUGAACUUUACUUAUGUGGUACCCAAUGCCAGAAUGUAAGAGUUGCAAGUGAUUUUGUGCUGCUAUUCAUUAAAACUUGUA: 0.948
UUUAAUAAAAAUUGUUAUGAACUAUAGUAUUUUAGAUGAUGAGUGACUUAUUUUAAUUCCACUUUAACAUUUUACUGUGCUGUUAACUUGGAAGACCUGUUUGAAAUUAG: 0.801
ACAAAAUUAAAUAAACAGAAUGUCCCCAGGAGUCAGCAGGUCACAGUCUGGCUUUGUGAUGGUUGACAAGGUCUAGCUACAUGGGAAAGCCUGAGAAGUCACUUUGGAAC: 1.12
CAAACUCUACCCAGUCUUUUCUAGACCCUCAACUAUCUCCAGUGUUGUUGUUUAAUCGUAGCCGGAUCAGGGAGUGAGUCUUUUAGGCAAAUGUUGGAUUAUAUAUCAAA: 0.317
CGUUUGCAGAAGGGGGUCUCUUCUUCCAGGUAGCUGAAAGGGGAAGACCUGACGUACUCUGGUUAGGUUAGGACUUGCCCUCGUGGUGGAAACUUUUCUUAAAAAGUUAU: 0.258
CGCCAGUGCAUCCAGUACAGCGCCUGCCAUCUUGUGCAAUGUGCAACCCUGGGAUGUGAGCCCUGCCAUGUGCUGGUAACAUGGCUAGGCAUGUUGGGCUUCCCAAACCA: 1.78
UCCCACUUGAAUGUGACACUGAUAAUAAUUAUGCUGAUUUUUAGCAUCUCUUAUAGGAAUCAAAGUUUAUUAAAGUUACAUAGAGGAUUGAAAAAUGUAUAUCACUCAAU: 55.4
CUUUUAGUCUUGUGCUGACUUUCUCCUGUCCUCUUCCAGUUUAGAAUAAGACAGGGGAGAAAAAGGCUUUUCGAGUGUGGGACAAGGUCUGAUGUCAGUGAACGGAACUG: 0.276
AAGUAAUUUGUUGACACGAAAAUUUUGGAGGAACCAAUUGAAAACACACUUCCAGUCUAGAUGAUGCUUUGUGUGAUACAUUAAGUUCUUAUUUUGGAUUAAAAGAAGUU: 0.519
AUUAAAUAAAAAAUAUUAAAUAAAACAUGGCAAUAAGUGUCAGACUAUUAGGAAUUGAGAAGGGGGAUCAACUAAAUAAACGAAGAGAGUCUUUCUUAUGCCUUCCUUGC: 0.373
UGCUAAGGCCUGUGCUCCAAAGCAACGGGCUGGGGCAGCCUGCAGCUGCCCACCCAACCUGGUCUUCACACCAGAUUGCACAGGAUACUGGGUCUUGUCUAUCUUGAUGG: 0.514

Block 3 — technique: protein binding microarray; form: double-stranded DNA, one strand shown; medium: in vitro; tested at: not given; relative to: not given; direction: higher = stronger binding; endpoint: E-score
Target: Histone acetyltransferase KAT6A, both winged helices, GST fusion (KAT6A, Homo sapiens, UniProt Q92794, residues 1-181)
Setting: 8-mer, flanks averaged, mean of 2 arrays, mostly near background
Target sequence (chain): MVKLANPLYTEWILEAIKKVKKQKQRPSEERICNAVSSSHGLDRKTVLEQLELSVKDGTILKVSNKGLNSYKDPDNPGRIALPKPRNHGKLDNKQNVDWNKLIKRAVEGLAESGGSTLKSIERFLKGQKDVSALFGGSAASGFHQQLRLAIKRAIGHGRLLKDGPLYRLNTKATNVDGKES
CAGAGTCG: -0.0256
AACTTCGG: -0.0438
AGCCCGCA: 0.0807
ACAATGTC: -0.0227
ACATTACG: 0.13
AATTTGCC: 0.0457
AGGACCGG: 0.114
CGGAAGTC: 0.283
CACAAGAG: -0.113
ACCACGTC: -0.0978
CCCGTCTC: 0.223
CCCAAAGG: -0.103
CCGGCATC: 0.264
ACCGCTAA: 0.201
AACCTATG: -0.0876
GCATTTAA: -0.0438
TAACGCGA: 0.155
CGCATCGA: 0.181
AGAAGGGA: -0.167
ACTTACAC: -0.0267
ACCTAAGG: -0.139
ATTCGCAG: -0.0358
ACAGCCAC: -0.117
ATCCACGG: 0.212
GCAATTGC: 0.312

Block 4 — technique: RNA Bind-n-Seq; form: RNA; medium: in vitro; tested at: 200 nM; setting: whole 134-nt RNA, ends assumed; added: 150 mM KCl; relative to: input library; direction: higher = stronger binding; endpoint: log2 enrichment
Target: Fragile X messenger ribonucleoprotein 1, C-terminal low-complexity region (Fmr1, Mus musculus, UniProt P35922)
All sequences stand within: GGGAGUUCUACAGUCCGACGAUC … UGGAAUUCUCGGGUGUCAAGG
AAGUCCUGUGCUACACAUCGUAUGUACCGAAUCGGGGAAAAGGAAAAGGAAAAGGGGAAAGUAUUAUGUUACGCCGUUCGGAUCUGCACU: -0.119
GUCCUGUGCUACACAUCGUAUGUACCGAAUCGGGAAAAAGGGAAAAAGGAAAAAGGGGAAAGUAUUAUGUUACGCCGUUCGGAUCUGCAC: -0.357
UGUGCUACACAUCGUAUGUACCGAAUCGGGGAAAAAAAGGGGUUUUUGGGGAAAAAAAGGGGAAAGUAUUAUGUUACGCCGUUCGGAUCU: 0.132
UCAAGUCCUGUGCUACACAUCGUAUGUACCGAAUCGGUUGGGGUUGGGGUUGGGGAAAGUAUUAUGUUACGCCGUUCGGAUCUGCACUUC: 0.801
AGUCCUGUGCUACACAUCGUAUGUACCGAAUCGGGGAAAAAGGAAAAAGGAAAAAGGAAAGUAUUAUGUUACGCCGUUCGGAUCUGCACU: -0.669
ACCAUGCAGGUGGGCAUCUUUGGGAAGUGGGGCAAGGGGGGGAUAGGGAGGGGGGUAACACUUUGGGAACAGGUGGUCCCAGGCCGUUUC: 0.735
UCAAGUCCUGUGCUACACAUCGUAUGUACCGAAUCGGGGAAGGAAGGGGAAGGGGAAAGUAUUAUGUUACGCCGUUCGGAUCUGCACUUC: 0.724
AGUCCUGUGCUACACAUCGUAUGUACCGAAUCGGUUUUUGGGUUUUUGGUUUUUGGGGAAAGUAUUAUGUUACGCCGUUCGGAUCUGCAC: -0.335
AAGUCCUGUGCUACACAUCGUAUGUACCGAAUCGGGGCCCCGGGGCCCCGGCCCCGGAAAGUAUUAUGUUACGCCGUUCGGAUCUGCACU: -0.879
CCUGUGCUACACAUCGUAUGUACCGAAUCGGGUUUUUUUGGGAAAAAGGGAAAAAAAGGGAAAGUAUUAUGUUACGCCGUUCGGAUCUGC: -0.894
UGGGAGGUGGAUUUUGUUUAUUUUUUUAGCUCAUUUCCAGGGGUGGGAAUUUUUUUUUUAUAUGUGUCAUGAAUAAAGUUGUUUUUGAAA: 0.365
CAAGUCCUGUGCUACACAUCGUAUGUACCGAAUCGGGCCCCGGCCCCGGGCCCCGGAAAGUAUUAUGUUACGCCGUUCGGAUCUGCACUU: -0.59
AAGUCCUGUGCUACACAUCGUAUGUACCGAAUCAAAUUUAAAUUUUUAAACCCAAAAAAGUAUUAUGUUACGCCGUUCGGAUCUGCACUU: 0.206
AAGUCCUGUGCUACACAUCGUAUGUACCGAAUCGGGCCCCGGGGCCCCGGGCCCCGGAAAGUAUUAUGUUACGCCGUUCGGAUCUGCACU: 0.942

Repeated from above (block 3):
AGGACCGG: 0.114
ACCGCTAA: 0.201
ACATTACG: 0.13
AACTTCGG: -0.0438
ACAATGTC: -0.0227
CCGGCATC: 0.264
CCCGTCTC: 0.223
AACCTATG: -0.0876
AGAAGGGA: -0.167
